Experimental data from different studies.
Every numbered part comes from another study and shows a few of its results, in no order. Values joined by “and” are separate records of one study, mostly repeats; a detail may differ.
UniProt Q9UKE5, sequence (whole entry, looked up): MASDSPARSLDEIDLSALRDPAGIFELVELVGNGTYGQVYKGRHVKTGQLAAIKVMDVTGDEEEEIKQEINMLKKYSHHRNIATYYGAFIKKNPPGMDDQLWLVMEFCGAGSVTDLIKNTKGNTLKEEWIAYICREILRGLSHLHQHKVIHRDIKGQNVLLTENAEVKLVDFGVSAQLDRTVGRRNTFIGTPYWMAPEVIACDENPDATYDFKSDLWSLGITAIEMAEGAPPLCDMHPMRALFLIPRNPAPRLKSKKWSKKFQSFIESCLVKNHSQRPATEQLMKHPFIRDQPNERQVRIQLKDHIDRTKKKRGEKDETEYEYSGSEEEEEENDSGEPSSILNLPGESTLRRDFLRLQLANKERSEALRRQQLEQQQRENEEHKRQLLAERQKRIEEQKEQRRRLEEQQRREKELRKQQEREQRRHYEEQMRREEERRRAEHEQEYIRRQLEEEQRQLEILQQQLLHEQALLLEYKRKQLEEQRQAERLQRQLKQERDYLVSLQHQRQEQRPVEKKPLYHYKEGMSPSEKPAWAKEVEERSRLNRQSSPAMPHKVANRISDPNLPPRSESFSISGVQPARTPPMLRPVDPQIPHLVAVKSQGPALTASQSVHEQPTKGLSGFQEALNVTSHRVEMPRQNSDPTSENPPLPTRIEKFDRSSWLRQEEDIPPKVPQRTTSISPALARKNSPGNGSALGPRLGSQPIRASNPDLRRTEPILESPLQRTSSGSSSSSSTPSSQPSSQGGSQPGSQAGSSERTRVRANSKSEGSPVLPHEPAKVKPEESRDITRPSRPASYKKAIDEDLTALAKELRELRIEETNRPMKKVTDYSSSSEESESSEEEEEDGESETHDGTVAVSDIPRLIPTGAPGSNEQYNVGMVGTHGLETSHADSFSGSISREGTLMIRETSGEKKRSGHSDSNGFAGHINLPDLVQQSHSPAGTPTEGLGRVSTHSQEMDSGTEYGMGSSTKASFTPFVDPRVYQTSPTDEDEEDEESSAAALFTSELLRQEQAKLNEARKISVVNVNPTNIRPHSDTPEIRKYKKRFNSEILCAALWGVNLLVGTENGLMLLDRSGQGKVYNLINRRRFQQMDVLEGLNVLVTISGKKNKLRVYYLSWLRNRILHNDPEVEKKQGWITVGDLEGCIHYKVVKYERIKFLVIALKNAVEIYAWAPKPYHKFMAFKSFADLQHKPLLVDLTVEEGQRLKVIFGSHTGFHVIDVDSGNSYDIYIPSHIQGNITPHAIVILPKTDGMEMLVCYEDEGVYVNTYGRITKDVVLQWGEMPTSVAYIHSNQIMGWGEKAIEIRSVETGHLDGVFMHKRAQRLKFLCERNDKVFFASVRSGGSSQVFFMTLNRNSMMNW
UniProt Q15349, sequence (whole entry, looked up): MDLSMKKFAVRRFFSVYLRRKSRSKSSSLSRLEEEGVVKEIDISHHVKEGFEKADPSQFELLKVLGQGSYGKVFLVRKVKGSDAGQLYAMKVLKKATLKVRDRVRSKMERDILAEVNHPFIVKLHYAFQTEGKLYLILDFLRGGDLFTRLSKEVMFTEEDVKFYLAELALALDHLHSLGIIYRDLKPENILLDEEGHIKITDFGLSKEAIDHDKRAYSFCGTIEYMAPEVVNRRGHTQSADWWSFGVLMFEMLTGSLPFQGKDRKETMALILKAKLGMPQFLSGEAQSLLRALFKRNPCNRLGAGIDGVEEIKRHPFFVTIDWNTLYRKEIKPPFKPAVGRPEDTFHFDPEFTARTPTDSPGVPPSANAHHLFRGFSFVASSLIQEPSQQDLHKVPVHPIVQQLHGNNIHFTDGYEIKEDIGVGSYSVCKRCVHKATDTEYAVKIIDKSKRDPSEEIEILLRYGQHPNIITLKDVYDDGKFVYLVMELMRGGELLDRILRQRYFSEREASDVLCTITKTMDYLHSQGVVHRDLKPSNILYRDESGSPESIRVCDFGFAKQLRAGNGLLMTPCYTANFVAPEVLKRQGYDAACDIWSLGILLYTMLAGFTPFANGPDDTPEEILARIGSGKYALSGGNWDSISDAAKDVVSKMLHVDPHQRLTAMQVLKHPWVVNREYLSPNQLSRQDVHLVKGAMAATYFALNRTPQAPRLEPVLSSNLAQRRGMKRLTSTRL
UniProt Q15139, sequence (whole entry, looked up): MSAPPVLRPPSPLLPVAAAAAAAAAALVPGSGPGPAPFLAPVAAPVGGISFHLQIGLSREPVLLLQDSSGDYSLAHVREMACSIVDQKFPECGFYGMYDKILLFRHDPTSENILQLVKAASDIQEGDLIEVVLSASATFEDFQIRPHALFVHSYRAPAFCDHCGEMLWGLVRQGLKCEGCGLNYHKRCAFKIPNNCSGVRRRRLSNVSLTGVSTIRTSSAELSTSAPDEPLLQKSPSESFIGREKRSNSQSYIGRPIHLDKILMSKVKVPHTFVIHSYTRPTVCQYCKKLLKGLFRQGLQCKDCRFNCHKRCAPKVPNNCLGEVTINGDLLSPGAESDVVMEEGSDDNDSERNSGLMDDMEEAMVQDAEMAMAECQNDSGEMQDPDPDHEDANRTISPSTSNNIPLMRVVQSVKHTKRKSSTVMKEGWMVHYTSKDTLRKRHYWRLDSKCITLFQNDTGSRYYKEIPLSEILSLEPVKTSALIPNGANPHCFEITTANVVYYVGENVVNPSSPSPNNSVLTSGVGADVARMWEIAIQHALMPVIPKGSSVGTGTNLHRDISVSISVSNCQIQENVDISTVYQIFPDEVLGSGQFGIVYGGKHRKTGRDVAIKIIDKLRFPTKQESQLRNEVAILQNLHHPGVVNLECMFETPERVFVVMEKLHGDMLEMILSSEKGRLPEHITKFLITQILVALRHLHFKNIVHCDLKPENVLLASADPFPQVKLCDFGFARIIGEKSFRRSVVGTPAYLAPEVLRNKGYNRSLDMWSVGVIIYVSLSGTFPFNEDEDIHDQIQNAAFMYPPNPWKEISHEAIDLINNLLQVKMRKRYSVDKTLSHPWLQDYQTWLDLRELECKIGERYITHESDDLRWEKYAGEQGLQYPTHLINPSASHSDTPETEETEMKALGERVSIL
UniProt P53779, sequence (whole entry, looked up): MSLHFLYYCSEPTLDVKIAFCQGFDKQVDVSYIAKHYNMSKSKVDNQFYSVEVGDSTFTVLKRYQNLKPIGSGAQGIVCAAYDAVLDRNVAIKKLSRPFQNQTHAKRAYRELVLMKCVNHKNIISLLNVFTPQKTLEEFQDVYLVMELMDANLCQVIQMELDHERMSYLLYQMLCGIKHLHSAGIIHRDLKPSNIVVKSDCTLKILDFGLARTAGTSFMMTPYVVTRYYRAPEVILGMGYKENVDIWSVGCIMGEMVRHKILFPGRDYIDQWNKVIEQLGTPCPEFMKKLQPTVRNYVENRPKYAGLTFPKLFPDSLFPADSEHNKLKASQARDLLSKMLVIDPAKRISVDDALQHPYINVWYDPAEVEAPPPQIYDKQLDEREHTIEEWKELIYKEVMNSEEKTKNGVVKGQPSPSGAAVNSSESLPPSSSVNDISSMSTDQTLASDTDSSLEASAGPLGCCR
UniProt P41279, sequence (whole entry, looked up): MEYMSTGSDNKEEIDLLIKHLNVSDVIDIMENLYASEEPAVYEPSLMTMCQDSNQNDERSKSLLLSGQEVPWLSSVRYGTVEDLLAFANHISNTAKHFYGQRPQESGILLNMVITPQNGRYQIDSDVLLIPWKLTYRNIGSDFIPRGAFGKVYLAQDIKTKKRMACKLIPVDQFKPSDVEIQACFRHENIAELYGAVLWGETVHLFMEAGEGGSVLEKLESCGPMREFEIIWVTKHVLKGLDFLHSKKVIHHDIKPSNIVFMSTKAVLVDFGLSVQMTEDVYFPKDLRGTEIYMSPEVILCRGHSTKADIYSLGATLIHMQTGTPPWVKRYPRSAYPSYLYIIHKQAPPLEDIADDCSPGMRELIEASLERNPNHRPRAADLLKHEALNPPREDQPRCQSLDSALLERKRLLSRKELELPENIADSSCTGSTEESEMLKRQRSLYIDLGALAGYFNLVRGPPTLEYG
UniProt Q09013, sequence (whole entry, looked up): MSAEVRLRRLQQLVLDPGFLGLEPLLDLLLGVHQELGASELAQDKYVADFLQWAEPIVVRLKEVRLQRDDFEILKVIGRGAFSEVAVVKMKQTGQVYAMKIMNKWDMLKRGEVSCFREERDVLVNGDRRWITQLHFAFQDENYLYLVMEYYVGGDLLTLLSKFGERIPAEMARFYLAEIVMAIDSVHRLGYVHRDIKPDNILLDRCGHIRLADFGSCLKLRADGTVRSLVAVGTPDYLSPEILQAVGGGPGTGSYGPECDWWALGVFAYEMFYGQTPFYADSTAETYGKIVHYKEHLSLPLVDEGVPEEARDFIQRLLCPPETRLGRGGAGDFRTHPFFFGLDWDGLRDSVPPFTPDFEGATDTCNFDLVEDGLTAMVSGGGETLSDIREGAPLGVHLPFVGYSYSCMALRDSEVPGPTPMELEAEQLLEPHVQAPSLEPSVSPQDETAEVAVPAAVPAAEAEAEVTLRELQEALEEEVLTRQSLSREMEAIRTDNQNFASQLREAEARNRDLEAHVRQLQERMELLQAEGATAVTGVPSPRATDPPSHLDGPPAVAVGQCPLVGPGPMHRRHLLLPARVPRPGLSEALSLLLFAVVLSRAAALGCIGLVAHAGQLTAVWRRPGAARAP
UniProt O14965, sequence (whole entry, looked up): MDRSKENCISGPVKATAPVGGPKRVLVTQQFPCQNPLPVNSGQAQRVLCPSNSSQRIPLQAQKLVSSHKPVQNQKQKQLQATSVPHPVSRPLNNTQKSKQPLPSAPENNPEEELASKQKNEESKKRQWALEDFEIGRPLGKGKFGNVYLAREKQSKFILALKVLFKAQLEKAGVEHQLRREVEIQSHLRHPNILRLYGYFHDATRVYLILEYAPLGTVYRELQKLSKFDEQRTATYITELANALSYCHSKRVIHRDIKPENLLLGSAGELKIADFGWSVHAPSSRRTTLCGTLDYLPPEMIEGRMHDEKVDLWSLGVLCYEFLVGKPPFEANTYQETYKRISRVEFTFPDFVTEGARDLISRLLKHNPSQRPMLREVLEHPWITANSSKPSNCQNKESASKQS

Series 1
Host: human
Sample: microsomes or S9
Concentration: 2 µM
Time: 0.5 h
`Cc1cc(C(=O)NC2CCCC2)ccc1NC(=O)N1CCn2ncnc2C1` gave a remaining compound of 92.3%.
With `O=c1c2c3c(nn2cnn1Cc1nc(-c2ccccc2F)no1)CCCC3` the remaining compound was 12.5%.
`CCC(=O)N(CCOC)CC(=O)N1N=C(c2cccs2)CC1c1sccc1C` (centres unmarked) has a remaining compound of 36%.
For `Cc1ccc(C2Nc3ccc4ccccc4c3C3=C2CC(C)(C)CC3=O)o1` (centres unmarked), the remaining compound was 3.57%.
For `Cc1nn(-c2ccc(F)cc2)c(C)c1C1CC(=O)Nc2c1c(C)nn2-c1ncnc2[nH]cnc12` (centres unmarked), the remaining compound was 75.3%.
For `CCOC(=O)N1CCN(C(=O)c2cc(-c3ccccc3)nn2C)CC1`, the remaining compound was 31%.
With `Cc1ccc(-c2noc3c(N(C)Cc4ccccc4)ncnc23)cc1` the remaining compound was 33.4%.
The remaining compound of `CCOC(=O)c1[nH]c(=O)n(CCNC(=O)OC(C)(C)C)c1C` is reported as 59.3%.
The remaining compound of `N#Cc1cccc(COc2cccnc2Nc2nc3cc(F)ccc3[nH]2)c1` is reported as 32.5%.
With `Cc1cc(OCC(O)CN2C(C)(C)CC(O)CC2(C)C)ccc1C(C)C` (centres unmarked) the remaining compound was 26%.
With `Cc1ccc(C(C)(C)C)c(OCCOCCN2CC(C)OC(C)C2)c1` (centres unmarked) the remaining compound was 0.0987%.

Series 2
Structure (SMILES): CC(C)c1nn(-c2c(Cl)cccc2Cl)c2nc(Cc3ccc(OCCO)cc3)[nH]c(=O)c12
Effect on: enzyme activity
Mode: inhibitor
Concentration: 0.5 µM
Relative to: control
The remaining activity was 99% (Homeodomain-interacting protein kinase 3 (HIPK3, Homo sapiens, UniProt Q9H422)).
It gave 109% for remaining activity (Mitogen-activated protein kinase 10 (MAPK10, Homo sapiens, UniProt P53779)).
For Cyclin-dependent kinase 7 (CDK7, Homo sapiens, UniProt P50613): remaining activity read 60.3%.
Epidermal growth factor receptor (EGFR, Homo sapiens, UniProt P00533) — remaining activity: 95.2%.
Myotonin-protein kinase (DMPK, Homo sapiens, UniProt Q09013) — remaining activity: 99.3%.
The remaining activity was 96.7% (Dual specificity tyrosine-phosphorylation-regulated kinase 4 (DYRK4, Homo sapiens, UniProt Q9NR20)).
It gave 97.5% for remaining activity (Serine/threonine-protein kinase N2 (PKN2, Homo sapiens, UniProt Q16513)).
NT-3 growth factor receptor (NTRK3, Homo sapiens, UniProt Q16288) — remaining activity: 90.5%.
Casein kinase II subunit alpha' (CSNK2A2, Homo sapiens, UniProt P19784) — remaining activity: 92.2%.
It gave 108% for remaining activity (G protein-coupled receptor kinase 5 (GRK5, Homo sapiens, UniProt P34947)).
It gave 103% for remaining activity (Serine/threonine-protein kinase D1 (PRKD1, Homo sapiens, UniProt Q15139)).
It gave 94.7% for remaining activity (Mitogen-activated protein kinase kinase kinase 2 (MAP3K2, Homo sapiens, UniProt Q9Y2U5)).
It gave 92.5% for remaining activity (Rho-associated protein kinase 2 (ROCK2, Homo sapiens, UniProt O75116)).
It gave 96.1% for remaining activity (Protein-tyrosine kinase 2-beta (PTK2B, Homo sapiens, UniProt Q14289)).
Cyclin-dependent kinase 2, with cyclin A (CDK2, Homo sapiens, UniProt P24941) — remaining activity: 1.96%.
The remaining activity was 105% (Proto-oncogene tyrosine-protein kinase ROS (ROS1, Homo sapiens, UniProt P08922)).
It gave 107% for remaining activity (Aurora kinase A (AURKA, Homo sapiens, UniProt O14965)).
It gave 97.5% for remaining activity (Proto-oncogene tyrosine-protein kinase receptor Ret (RET, Homo sapiens, UniProt P07949)).
It gave 86.9% for remaining activity (STE20-like serine/threonine-protein kinase (SLK, Homo sapiens, UniProt Q9H2G2)).
For Calcium/calmodulin-dependent protein kinase type 1G (CAMK1G, Homo sapiens, UniProt Q96NX5): remaining activity read 100%.
For Mitogen-activated protein kinase kinase kinase 8 (MAP3K8, Homo sapiens, UniProt P41279): remaining activity read 96.4%.

Series 3
Compound: CC(=O)N1CCC(c2ccc(C(=O)NC(=N)N)cc2C(F)(F)F)CC1
Effect on: cell-free assay
Method: competition with immobilised ligand
Concentration: 1 µM
It gave 100% for remaining binding (Uncharacterized serine/threonine-protein kinase SBK3 (SBK3, Homo sapiens, UniProt P0C264)).
Calcium/calmodulin-dependent protein kinase type II subunit alpha (CAMK2A, Homo sapiens, UniProt Q9UQM7) — remaining binding: 100%.
The remaining binding was 96% (Serine/threonine-protein kinase 38 (STK38, Homo sapiens, UniProt Q15208)).
The remaining binding was 92% (Serine/threonine-protein kinase Nek10 (NEK10, Homo sapiens, UniProt Q6ZWH5)).
Ribosomal protein S6 kinase alpha-2, C-terminal kinase domain (RPS6KA2, Homo sapiens, UniProt Q15349) — remaining binding: 97%.
For RAC-alpha serine/threonine-protein kinase (AKT1, Homo sapiens, UniProt P31749): remaining binding read 100%.
The remaining binding was 80% (Tyrosine-protein kinase Srms (SRMS, Homo sapiens, UniProt Q9H3Y6)).
The remaining binding was 100% (Serine/threonine-protein kinase NLK (NLK, Homo sapiens, UniProt Q9UBE8)).
It gave 100% for remaining binding (TRAF2 and NCK-interacting protein kinase (TNIK, Homo sapiens, UniProt Q9UKE5)).
Casein kinase I isoform alpha (CSNK1A1, Homo sapiens, UniProt P48729) — remaining binding: 92%.
Serine/threonine-protein kinase TAO1 (TAOK1, Homo sapiens, UniProt Q7L7X3) — remaining binding: 100%.

Series 4
Compound: CC(=O)N1CCN(c2nc(OC[C@@H]3CCCN3C)nc3c2CCN(c2cccc4cccc(Cl)c24)C3)C[C@@H]1CC#N
Effect on: binding
Mode: competitor
Method: NanoBRET
Cells: HEK293
KRAS Q61R: GTPase KRas (KRAS, Homo sapiens, UniProt P01116, Q61R)
The normalized BRET was 98% and 91.4% and 101% (GTPase KRas (KRAS, Homo sapiens, UniProt P01116, G12D); 412 nM).
The normalized BRET was 90.6% and 91.4% and 96.6% (GTPase KRas (KRAS, Homo sapiens, UniProt P01116, Q61L); 15.2 nM).
KRAS Q61R; 5.08 nM — normalized BRET: 98.7% and 103% and 107%.
The normalized BRET was 95.5% and 100% and 107% (KRAS Q61R; 45.7 nM).

Excerpt of the above (series 2):
Cyclin-dependent kinase 2, with cyclin A (CDK2, Homo sapiens, UniProt P24941) — remaining activity: 1.96%.
The remaining activity was 105% (Proto-oncogene tyrosine-protein kinase ROS (ROS1, Homo sapiens, UniProt P08922)).
It gave 107% for remaining activity (Aurora kinase A (AURKA, Homo sapiens, UniProt O14965)).
It gave 97.5% for remaining activity (Proto-oncogene tyrosine-protein kinase receptor Ret (RET, Homo sapiens, UniProt P07949)).
